Experimental data gathered from unrelated publications.
Each numbered part is a random draw from the data of one study; scales do not carry over between parts. Positions count from the first letter of the parent shown.

Sample 1
Molecule: PhoQ, residues 284 288 289 292 302 303 ALASRC
Method: Sort-seq
Item: YFP reporter
Sample: E. coli
Setting: PhoQ-PhoP variant library
Added: 10 µM Mg2+
Relative to: high Mg2+ state
Reading: higher = stronger signaling
target | fold induction
PhoP, residues 12 14 15 18 19 HHYTI (Escherichia coli, UniProt P23836) | 11.6
PhoP, residues 12 14 15 18 19 AYFRS (Escherichia coli, UniProt P23836) | 19.7
PhoP, residues 12 14 15 18 19 SFCSL (Escherichia coli, UniProt P23836) | 10.5

Sample 2
Target: RING finger protein unkempt homolog, zinc fingers 1-6, SBP tag (UNK, Homo sapiens, UniProt Q9C0B0, residues 30-357)
Chain of UniProt Q9C0B0 (30-357, looked up): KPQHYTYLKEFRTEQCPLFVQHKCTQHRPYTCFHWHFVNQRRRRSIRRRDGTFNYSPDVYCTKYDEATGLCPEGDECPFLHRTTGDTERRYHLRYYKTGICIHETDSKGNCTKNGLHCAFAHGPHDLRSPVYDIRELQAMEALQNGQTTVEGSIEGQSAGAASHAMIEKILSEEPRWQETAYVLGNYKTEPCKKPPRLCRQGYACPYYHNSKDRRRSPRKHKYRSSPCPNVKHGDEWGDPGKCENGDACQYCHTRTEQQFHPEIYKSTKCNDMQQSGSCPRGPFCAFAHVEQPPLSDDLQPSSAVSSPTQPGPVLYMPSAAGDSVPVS
Method: RNA Bind-n-Seq
Form: RNA
Sample: in vitro
Tested at: 100 nM
Setting: RNA with constant flanks, vertebrate orthologous sites, ends assumed
Relative to: input RNA pool
Reading: higher = stronger binding
Shared flanks, not repeated: GGGAGUUCUACAGUCCGACGAUC … CAACAGAGGAUUGAGCAUCA
Oligonucleotide | bound/input enrichment
UGAGGGAGAGAUUCCUGUGGUUUUUUAAUACUUAAUUUGUUUUCUUUAGAUAUUCCAGUAUGCCAUUUUUUUUUUCCAGUAUGCCAUUUUUGAUGGAACUGGUUUAUUGACAGUUCCUGG | 1.86 ratio
CUGUGAGGGUCUACUGACCACUCACUGUUAUGUCUGAUAUCUAUAAACACUUUUUGUUCUUAGUCUUUUUCUUGUAUAAUUGAUGUUCUUUAAAAUUGUUAAUGUAUAACAGGGCUUAUG | 0.539 ratio
UUGUCUGCCUCAUUCUAAAAUUUACACAGUAGACAUUUGUCAUCCAUGCUGUCCCACAAAUAGUUUUUUUGUUUACGAUUUAUGACAGGUUUAUGUUACUUCUAUUUGAAUUUCUAUAUU | 2.91 ratio
UGUAGGUGUUAUGUAUUCAGAUGACAGAAAUACCUAGUCUUCAGAUGAAUUUUUUGCUGAUGUACACGCUGUACCAAACAGUAAUCGUAAUGAUCUGUUGCUAUAGUGACAUGCAAUUAU | 0.186 ratio
UUUUUUGUUAAACUUUAUUUUUUCCUUUCUUUUUCUUUCUGCCUUUUUUUUUUUUUUUGGUAGUUGUUGUUACCCACGCCAUUUUACGUCUCCUUCACUGAAGGGCUAGAGUUUUAACUU | 1.23 ratio
CUACUAUAAACAACUCAGGGCAGUAUUCUCGCUAUCCUUACAGUAACCUAAAUCAGGGAUUAGUUAAUAAUACAGGGAUGAAUCAGAAUUUAGGCCUUACAAAUAACACUCCAAUGAAUC | 1.06 ratio
GCAAAAGGCCAAAUUCCCUCCUCCCUUCUACUGCUUCUACCAACUGGAAGCACAGAAAACUAGAAUUUCAUUUCAUUUUUUUUUUUAAAAAAAAAAUUGAUUUCUCGUAACAUCCAAUAG | 0.779 ratio
GAACUAAAGGAGUUAGCAUCUUUAUUUUUGUAUCAAAGAUAAAGGUUAUUUUGAAAUUAUUAGGGUUUUUACACAACUUAAAUCUGUUGCUUUUAUAAACAAAUUGUUUGAUGUAGCGAC | 1.26 ratio
CUCCGCCACCCCUGGGUGCCUGACUCCAGUGAAGCACUCACCAGUGCUGCAAGGGGUCCAGAGUAUUUUUUUGCUGCUUCAGUCCCCAAUGCCUUCCAGCAGAAGUGGCAGUAGACUGUU | 0.303 ratio
ACAGGAGCAGCAUAGACUAUAAGAGCUUUGGGGAAAUGAGCUUUGCUUUUUAUUUUUGAAUAGGAUACUUUUAUAUGAUGGGUGCUUUGAGUGUGAAUACAGCAGGCUCUUCAUUUCAGA | 1.86 ratio
AGAACUCUUGGAGUCUUAGAUGUUAUAAAAUUACAUAUAUGUCUGAAUUGUAAGAGUUAUCAGCACAGUUUUUUUAUGCACUUGUUUUGGGUACAAGGCAUUUCUGAAAUUUUAUAAACA | 0.162 ratio

Sample 3
Target: CCND3, cyclin fold, Cln2 fusion (human)
Method: yeast growth competition, sequencing
Sample: yeast
Setting: weak parent motif
Relative to: not given
Reading: higher = stronger binding
Starting sequence: SLBP docking peptide (human); ARYKRKLLINDFG; partner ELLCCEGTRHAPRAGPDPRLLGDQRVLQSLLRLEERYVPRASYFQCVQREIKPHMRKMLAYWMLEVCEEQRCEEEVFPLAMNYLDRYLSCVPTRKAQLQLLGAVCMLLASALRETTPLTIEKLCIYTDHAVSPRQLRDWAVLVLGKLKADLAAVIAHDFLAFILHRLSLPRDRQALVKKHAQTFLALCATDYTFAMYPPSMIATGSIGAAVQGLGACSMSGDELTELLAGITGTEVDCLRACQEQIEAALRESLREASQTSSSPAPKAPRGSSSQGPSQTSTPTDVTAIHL
Substitution | normalised enrichment score
ARYKRKLLDNDFG [I9D] | 0.0699
ARYKRKLLINDFY [G13Y] | 0.172
NRYKRKLLINDFG [A1N] | 0.219
ARYKRKLLINDRG [F12R] | 0.219
ARYKRKDLINDFG [L7D] | 0.129
ARYKRKLLINNFG [D11N] | 0.0613
FRYKRKLLINDFG [A1F] | 0.0235
ARYKRKLSINDFG [L8S] | 0.0861
ARYRRKLLINDFG [K4R] | 0.0973
ARYKRKLLINDIG [F12I] | 0.202
ARYKRYLLINDFG [K6Y] | 0.157

Sample 4
Target: RNA binding protein fox-1 homolog 2, RRM domain, GST-SBP tag (RBFOX2, Homo sapiens, UniProt O43251-10, residues 100-194)
Method: RNA Bind-n-Seq
Form: RNA
Sample: in vitro
Tested at: 365 nM
Setting: natural RNA segment, single round, ends assumed
Relative to: no-protein control
Reading: higher = stronger binding
Shared flanks, not repeated: GGGAGUUCUACAGUCCGACGAUC … UGGAAUUCUCGGGUGCCAA
Oligonucleotide | RBNS enrichment (R)
GCUGGGAAUUUUCUGCCAUGCAGGCAAGACCAUCAGCACCGAGAACCCCAAACCUGUUUUGUACUUAGAGACUGGCUUUGGUCAGUAGUUCACUGUGGAGACAAUGACAG | 0.372
AUACUAAGCAAUAACUUUACGAUCAACAGAAGAAAUUUUAAAACAGAGUCUCCUUUUCCCAUCCUUGGUGCAGACUGUGCCUGCCUGGACUCCGUAGAAAGCACUGGAUU | 0.711
GCUGUGACACUCUGGAUGUCUUGGUGUGUGUAGACACACAUUGCAGACUCUUAACGCAGGAAGGACUUCAAACUUCUGCUGAGACCUUGGGGUCAAGGAACAUUUCAUUG | 0.36
CUAAUAAAUAUUUUUUUAUGAAGAGGAAAAAUGUGUAGAUUACAUUUCACAUUUUGUAUUUUUGUUUGUGUCUGUUUGUAUUUUGGUGUUUACAACACCAAAGUGGGAAA | 0.394
ACUUCCAAUGCUUCUCUAGGCCCUGCACGUAAGUGAUUUUUCCAGUUCAAAGUCAAGACAGGUAAAAGGGCAUUCAUCAUUGUGCCUCAUAUCAGGUUUUGAUGAAUAUA | 0.456
AAGCGAGGUUUCAUGACACAACCUUUCAUGUCGUGAAAGGCAGAGGGUGACUGUGUGUGAUGUGCAGAGUCCUUGGACAGGAGUCGGGGGCUCCUCUGUCCCACUGCUGC | 0.493
UAUCUGCUGGAGUUCUACGUUUUUAUGUAAGCAUGAAACACAGGCAGUGUGAGAGAAAGCCAGGACCCGACAUGCUGUCCGUUAACGCUACGUCUGCUGUAGUUCCAUUU | 0.576
AUUCCGGGACCUGGCCCUGGGGGUGGACAAAGUCCAAGAGAGGGUGGUGAAAGGAAAAUUGCUGGAGGAGGAAGUGCAGGCUCAGACCCAGUCAGUACAAAUGGAAAAGG | 0.538
UUUGUUCCUUCUGUCCUUCCAACACAGAGACUGUUAGAGAUGAAAGUUUGGACGGUACUAAAGUCACCUCUGACUUCCUUCUGGGUUCCCCUACUACAGUUCUUGCUUCC | 0.362
UUUUCUACCUAACUUUUCAAGUAGGAGCCUCUGCCUUUAGUCAGUAGUCUUUGAAGCAAGUAUCCUGAUAGUUUAAGGCUUUGCAAUUUUAACUCCUUGAGGCCAGGCCA | 0.388
UUUGUUAUUAAAGCAUCCAGGGCAAUUUAAUAUUUGUUCCUAGAUGUAACUCAUUUGAAUAGGUUUUGCAUUUGUUAUUCAGCAGUGUAUAAAGCUAACCUUGAUAAUUU | 0.691
CAGGAAUAUUAAGUUCUAUAACUAGUACUCAAGGUUUAACCUUAAAAUUAAGAUUUCCUUAACCUUAACCUUAAAAUUGAUAUUAUAUUAAACAUACAUAAUACAAUGUA | 0.562
